Assay results from different studies.
Each numbered part is a random draw from the data of one study; scales do not carry over between parts. Changes are numbered by the printed parent chain.

Sample 1 — target: CCNE2, cyclin fold, Cln2 fusion (human); method: yeast growth competition, sequencing; sample: yeast; setting: weak parent motif; relative to: not given; direction: higher = stronger binding
Parent: WEE1 docking peptide (human); CTLRQKLIFSPCS
Substitution | normalised enrichment score
CALRQKLIFSPCS [T2A] | 0.565
CTLRQKAIFSPCS [L7A] | 0.374
ATLRQKLIFSPCS [C1A] | 0.329
CTARQKLIFSPCS [L3A] | 0.771
CTLRQALIFSPCS [K6A] | 0.245
CTLRAKLIFSPCS [Q5A] | 0.769

Sample 2 — method: RNA Bind-n-Seq; form: RNA; sample: in vitro; tested at: 365 nM; relative to: no-protein control; direction: higher = stronger binding
Target: RNA binding protein fox-1 homolog 2, RRM domain, GST-SBP tag (RBFOX2, Homo sapiens, UniProt O43251-10, residues 100-194)
Setting: natural RNA segment, single round, ends assumed
Construct (chain): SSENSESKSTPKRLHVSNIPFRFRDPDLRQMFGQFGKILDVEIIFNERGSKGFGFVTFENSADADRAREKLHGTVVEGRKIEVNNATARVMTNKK
Sequence | RBNS enrichment (R)
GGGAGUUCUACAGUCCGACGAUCUGUCUCAGGUCGUUGUCAUUUGCCCUCCCUCCAAUUUUGCUUCCCACCCCCACCACUCUACUGAAAGAAGAGAGCAACAGAGGUGAGGACCUGCUCUUCUCUAGUUCCAGUGGAAUUCUCGGGUGCCAA | 0.322
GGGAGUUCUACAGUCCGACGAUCUUCCCCGUGGGCCUGGGUUACUUUACAUUGAAUAAACACUGUUUGACCCAGUGUUCUGACUUGUACCGGAAAUGUGGAUACUAGUCCAUUGAUGGCGCACACCUUUAAUCUGGAAUUCUCGGGUGCCAA | 0.288
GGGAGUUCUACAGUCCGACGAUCAAAGAGUAUUAGCUUCUGCUUCCGGACUCAGUCUUUGUUGAGUGGGCCACUUCCAGGGGUGUGCCCGGGGUUAGGCAAGUGGCAGACGAGGGUUCUUAUUUGAGGCUUUGUGGAAUUCUCGGGUGCCAA | 0.906
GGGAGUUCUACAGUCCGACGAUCCUGAACAAACCCUGUAUCAAGUAUCUGAAAUUUAAGGAGAUCAAACAGACUGUGACCAAGGUCCUGUUGAGAAUUUAACAAGGCAAAAUCUGUCCUGUCACAGAAGUUUCUGGAAUUCUCGGGUGCCAA | 0.331
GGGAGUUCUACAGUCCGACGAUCACGCCCCGUCAACCACAAUCAAGAACUGAGGCCUGAGGCUGGUUGUACAAUGCCCACGCCUGCCUGGCUGCUUUCACCUGGGAGUGCUUUCGAUGUGGGCACCUGGGCUUUGGAAUUCUCGGGUGCCAA | 0.465
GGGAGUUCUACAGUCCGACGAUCUCACCUAUGUACAAUGGAGAGGGGUUCUAAGCACAAAUCUGCUGCUCAUGUAACGGUGGUACAUAAUAUCAAAUCAAAAGUUAUCUGUGACUAUAUAUAGGGAUCACAAAUGGAAUUCUCGGGUGCCAA | 0.365
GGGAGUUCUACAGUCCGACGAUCGCUGAUUUGAAAUUUAGAUUUUUUAAAUUAUGUACUGGGGACAGGUUUUUGUCGCUUUACAUUGCUUCCUAGUUUACAGCAUGAUGCAAAUGAUUUUCUAACUUAGUGUUUGGAAUUCUCGGGUGCCAA | 3.49
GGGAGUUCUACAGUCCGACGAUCCAUCAAGUUACGAAGUGAUUAAUUUCCUUCUCAGCAAACCUCCGGGAGGUUCCAGAAUGAGUUCUUCCUGACAGGUUGUCUUCACUGGGAGCGUGGGGCCCCCAGGCCCCUGGAAUUCUCGGGUGCCAA | 0.52
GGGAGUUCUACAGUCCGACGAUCUCUCUGCAUACACGAACCUAACCCAAAUUUGCUUUGGUGCCAGAAAAACUGAGCUAUGUUUGAACAAAGAUGUCGUGCAAACUGUACUGUGAACAACAGUUGGUUUAAAAUGGAAUUCUCGGGUGCCAA | 0.509
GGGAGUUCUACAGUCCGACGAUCGUGUUUGGUGCUGACACUCUGAACCCAAAACCAGGGAUCUCUGACAGGCUUGCCUGGCCCCAGGGACACUACUGCUACUGUAGCUGUGGCAGGGACCAACCAGGCUGCCUUGGAAUUCUCGGGUGCCAA | 0.206
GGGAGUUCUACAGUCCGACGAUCACAUUGUUUUCCUCACUGGACAGGACUGACAGGAUUACGGGGGUGGUUCCUUUAACUCUUCACCAAGUCCUCUAGCUGUAUUUCUGAAGGCUCUCACACUUCUUCUGUGAUGGAAUUCUCGGGUGCCAA | 0.308
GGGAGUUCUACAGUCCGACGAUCUGAGUUAAGAAGUCUUAAGUAUGCAGGCGUUUACGUGAUUGUGCCAUUCCAAAGUGCAUCAGAACUGUCAUUCCCUUCUAAUAUCUUCUCAGGAGUAAUACAAAUCAGGUUGGAAUUCUCGGGUGCCAA | 0.532

Sample 3 — method: competition protein-binding microarray; form: double-stranded DNA, one strand shown; sample: in vitro; tested at: 2 µM; together with: Cbf1 competitor, 0.05 µM; direction: higher = stronger binding
Target: Phosphate system positive regulatory protein PHO4, full length, GST-tagged (PHO4, Saccharomyces cerevisiae, UniProt P07270, residues 1-312)
Setting: whole 60-bp probe, lowest competitor level
Target sequence (chain): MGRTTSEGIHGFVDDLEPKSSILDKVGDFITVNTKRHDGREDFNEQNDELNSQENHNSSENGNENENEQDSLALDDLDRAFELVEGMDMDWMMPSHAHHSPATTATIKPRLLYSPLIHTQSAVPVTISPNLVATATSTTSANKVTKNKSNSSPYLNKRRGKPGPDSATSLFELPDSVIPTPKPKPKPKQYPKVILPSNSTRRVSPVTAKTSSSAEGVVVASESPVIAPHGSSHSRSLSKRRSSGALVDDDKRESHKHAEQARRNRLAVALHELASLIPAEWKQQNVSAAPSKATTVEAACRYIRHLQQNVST
Sequence | fluorescence intensity [a.u.]
TAACCCACCTTGGGCCACGTGGAAACCAGGGGCCAGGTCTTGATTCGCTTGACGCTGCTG | 15900
ATAGTTCGTGTACAGGCCGTGATGGTCATCTAATTTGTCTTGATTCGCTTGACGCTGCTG | 5400
CTTTCCCGATCTTAACACGTGTTTTTAGCACATTTGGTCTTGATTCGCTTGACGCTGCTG | 17300
CGGGCTGATCCCTTTATCGTGCATCTTGACCACTTTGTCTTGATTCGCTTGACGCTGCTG | 4120
TGAGGACATAATACCCACGTGAGTATGACTTTAAAAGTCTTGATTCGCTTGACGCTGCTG | 15100
CTTCTGTAAATTTGACTAGTGGGTGGACGCGCCCCGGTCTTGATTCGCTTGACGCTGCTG | 4080
CGGTAACGTCGCACTCACATGAGTTTTCCTGACTTCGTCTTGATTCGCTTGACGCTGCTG | 4870
GATAAGAGAGCACAGCACGTGGGTAAAGAGAGATACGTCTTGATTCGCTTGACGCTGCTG | 18400
CCCAGACCCACCCAGATCGTGATGGTTGTTACCATCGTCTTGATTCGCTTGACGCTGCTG | 5690
GACACATCTCTGAGCAGCATGACAGGGTTGTCCCAAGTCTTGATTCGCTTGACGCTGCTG | 4880
TCTGACCCCGATCCGCACGCTACTGCGTCGTCGATCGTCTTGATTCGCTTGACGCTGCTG | 6400
TTGACGAAACTATGCTGTGTGTGGCCAGGCGAACAAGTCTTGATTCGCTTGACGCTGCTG | 4260
AAATTACTAAGTTGTCACAATACTTACCCCGTATGAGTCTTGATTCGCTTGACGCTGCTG | 4020
CTTTCCCGATCTTGCGCAGTGGGTGTAGCACATTTGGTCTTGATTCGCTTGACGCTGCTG | 4590
AAATTACTAAGTTGTGCAGTGGGTGACGCCGTATGAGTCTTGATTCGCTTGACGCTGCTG | 4680
TGACCTCTAGATCGGCACGTCGACCATCAGTGGGAAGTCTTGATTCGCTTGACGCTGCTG | 6870
ATATAAATGGAAAAGCTGCATAACCACTTTAACTAAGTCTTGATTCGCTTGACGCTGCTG | 3770
ACAATCGCATAATCGCACGTATATACAGGCACACAAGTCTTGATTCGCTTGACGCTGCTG | 6360
TTCATAGTAAAGTTCCTCGTGAAACTGGTTTCTCAAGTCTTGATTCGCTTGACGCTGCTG | 4820
CGTCCTAGTGATTGTTTTGTGGGTGCCATGAGGAAGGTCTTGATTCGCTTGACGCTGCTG | 6010
AAATTACTAAGTTGTCACCATACTTACCCCGTATGAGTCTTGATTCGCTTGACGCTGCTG | 4160
CGTTGGTGGTGCAAAGTCGTGCTTTAACCCATCGGGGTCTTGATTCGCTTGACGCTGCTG | 8100
AAGCCGCCAGGCGTTCTCGTGCGATAAAGTTGCAAAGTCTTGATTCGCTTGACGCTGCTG | 7520
CTAACGAAGGTTTGCTTCGTGGGTGACAAGCCAAGTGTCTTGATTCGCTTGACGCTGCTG | 5820
CGTCCTAGTGATTGTCACGTCACTTCCATGAGGAAGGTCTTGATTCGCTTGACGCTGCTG | 4560

Sample 4 — method: Sort-seq; item: YFP reporter; sample: E. coli; setting: PhoQ-PhoP variant library; together with: 10 µM Mg2+; relative to: high Mg2+ state; direction: higher = stronger signaling
Molecule: PhoQ, residues 284 288 289 292 302 303 SSCCRF
target | fold induction
PhoP, residues 12 14 15 18 19 LFHKL (Escherichia coli, UniProt P23836) | 1.16
PhoP, residues 12 14 15 18 19 QQAYL (Escherichia coli, UniProt P23836) | 27.9
PhoP, residues 12 14 15 18 19 GMGLL (Escherichia coli, UniProt P23836) | 2.8

Sample 5 — target: CREB3L1, bZIP domain (human); method: DHFR protein complementation; sample: yeast; relative to: wild-type JUN-FOS pair; direction: higher = stronger binding
Setting: single substitutions, most at no-binding floor
Parent: JUN, bZIP domain (human); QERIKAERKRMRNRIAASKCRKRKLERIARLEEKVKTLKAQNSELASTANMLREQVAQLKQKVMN; partner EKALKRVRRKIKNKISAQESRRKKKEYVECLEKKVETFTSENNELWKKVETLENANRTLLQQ
Substitution | binding fitness [natural log]
A46Q | -1.3
A29N | -1.5
K34D | -1.02
Q55T | -1.42
V56H | -1.47
Q55W | -1.31
A29P | -1.48
L45E | -1.51
K39G | -1.4
Q55V | -1.49
K34S | -1.41

Sample 6 — method: aptamer microarray, sandwich; form: DNA with 2'F-ANA; sample: in vitro; tested at: 200 nM; together with: Cy3 exosite-II aptamer, 400 nM; direction: higher = stronger binding; sequence: GGTTGGTGTGGTTGG
Target: Prothrombin, mature alpha-thrombin (F2, Homo sapiens, UniProt P00734)
Setting: whole 15-mer aptamer, many near background
Modification | mean fluorescence intensity [a.u.]
2'F-ANA at 1 2 3 4 7 10 12 | 91.4
2'F-ANA at 3 5 6 8 9 | 121
2'F-ANA at 1 2 3 5 8 10 14 15 | 246
2'F-ANA at 3 4 5 6 8 12 | 252
2'F-ANA at 2 3 7 8 10 11 12 14 | 283
2'F-ANA at 1 2 3 6 7 8 9 10 12 13 | 82.5
2'F-ANA at 3 7 8 11 12 13 15 | 1280
2'F-ANA at 1 2 3 5 7 9 10 13 14 | 41.4
2'F-ANA at 4 5 6 7 8 9 10 11 13 | 49
2'F-ANA at 4 5 6 7 10 12 14 15 | 47.5
2'F-ANA at 1 4 6 8 10 11 12 13 | 83.8
2'F-ANA at 1 7 8 11 15 | 236
2'F-ANA at 2 4 6 12 15 | 547
2'F-ANA at 1 4 6 8 13 14 15 | 51.7
2'F-ANA at 2 4 5 6 8 9 10 12 13 | 50.6
2'F-ANA at 1 2 4 9 10 14 | 48.4
2'F-ANA at 12 15 | 851
2'F-ANA at 1 3 6 7 8 12 14 | 128
2'F-ANA at 2 5 6 7 8 9 12 | 176
2'F-ANA at 1 2 6 9 11 12 13 14 | 56.2
2'F-ANA at 1 4 5 7 10 | 47.8

For quick reference, copied from above (sample 3):
Sequence | fluorescence intensity [a.u.]
TTGACGAAACTATGCTGTGTGTGGCCAGGCGAACAAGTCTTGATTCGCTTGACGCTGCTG | 4260
CGTTGGTGGTGCAAAGTCGTGCTTTAACCCATCGGGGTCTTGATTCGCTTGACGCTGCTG | 8100
AAATTACTAAGTTGTGCAGTGGGTGACGCCGTATGAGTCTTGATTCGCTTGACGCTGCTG | 4680
CTTCTGTAAATTTGACTAGTGGGTGGACGCGCCCCGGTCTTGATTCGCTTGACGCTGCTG | 4080
CGGTAACGTCGCACTCACATGAGTTTTCCTGACTTCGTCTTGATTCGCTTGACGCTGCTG | 4870
CTTTCCCGATCTTAACACGTGTTTTTAGCACATTTGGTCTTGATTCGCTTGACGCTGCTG | 17300
TCTGACCCCGATCCGCACGCTACTGCGTCGTCGATCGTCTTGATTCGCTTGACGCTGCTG | 6400
TTCATAGTAAAGTTCCTCGTGAAACTGGTTTCTCAAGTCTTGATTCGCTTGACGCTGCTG | 4820
